Measurements of several laboratories.
Lines come from different studies, so protocols differ.

For `O=C(Nc1ccc(-c2noc(C3CC3)n2)c(Cl)c1)c1cccs1`, the logD was 4.3 (shake flask; PBS; 4 h, pH 7.4).
The logD of `O=C(NCCNCCO)c1cn(Cc2ccc(F)cc2)c2cc(Cl)c(OCc3ccc(C(F)(F)F)cc3)cc2c1=O` is reported as less than 3 (shake flask; PBS; 2 h, pH 7.4).
For `COc1ccc(S(=O)(=O)N2CCc3ccccc3C2)cc1N1CCN(C(=O)c2ccc(F)cc2C(F)(F)F)CC1`, the logD was 6.3 (pH 7.4).
`CCNC(=O)C1OC(n2cnc3c(NCC(c4ccccc4)c4ccccc4)nc(NCCNC(=O)Nc4ccncc4)nc32)C(O)C1O` (stereo not drawn) gave a logD of 3.5 (shake flask; aqueous buffer; pH 7.4).
The logD of `COc1cc(-c2cncc(-c3ccc(C4CCN(C)CC4)cc3)c2C)cc(OC)c1OC` is reported as 2.64 (shake flask; aqueous buffer; pH 7.4).
With `CCNC(=O)C1OC(n2cnc3c(NC(CC)CC)nc(NCCNC(=O)Nc4ccncc4)nc32)C(O)C1O` (stereo not drawn) the logD was 2.25 (shake flask; aqueous buffer; pH 7.4).
`COc1cc(/C=C/C(=O)/C=C(O)/C=C/c2ccc(OCC(=O)N3CCOCCOCCOCC3)c(OC)c2)ccc1OCC(=O)N1CCOCCOCCOCC1` gave a logD of 3.2 (shake flask; aqueous buffer; 12 h, pH 7.4).
The logD of `CC[C@@H](C)N([11CH3])C(=O)c1nc(-c2ccccc2Cl)c2ccccc2n1` is reported as roughly 3.5 (shake flask; aqueous buffer; pH 7.4).
The logD of `O=C1CCCCC(=O)Nc2ccc3oc(cc3c2)C(=O)NCc2cccc(c2)CNC(=O)c2cc3cc(ccc3o2)N1` is reported as 2 (shake flask; aqueous buffer; pH 7.4).
`COc1cc(/C=C/C(=O)/C=C(O)/C=C/c2ccc(OCC(=O)N3CCOCCOCCOCCOCC3)c(OC)c2)ccc1OCC(=O)N1CCOCCOCCOCCOCC1` gave a logD of 2.8 (shake flask; aqueous buffer; 12 h, pH 7.4).
The logD of `COc1cc2c(=O)c(C(=O)NCCNCCO)cn(Cc3ccccc3)c2cc1OCc1ccc(C(C)(C)C)cc1` is reported as less than 3 (shake flask; PBS; 2 h, pH 7.4).
`CCC(=O)N1CCN(c2ccc(N(C)C(=O)C(C)(C)c3cc(C(F)(F)F)cc(C(F)(F)F)c3)c(-c3ccccc3C)c2)CC1` has a logD of 4.99 (shake flask; aqueous buffer; pH 7).
The logD of `CCNC(=O)C1OC(n2cnc3c(NCC(c4ccccc4)c4ccccc4)nc(NCCc4ccc(CC[N+](C)(C)C)cc4)nc32)C(O)C1O` (stereo not drawn) is reported as 0.1 (shake flask; aqueous buffer; pH 7.4).
`C[n+]1cc(NC(=O)c2ccc3ccc4ccc(C(=O)Nc5cc6ccccc6[n+](C)c5)nc4c3n2)cc2ccccc21` gave a logD of -0.2 (shake flask; aqueous buffer; pH 7.4).
For `CCNC(=O)C1OC(n2cnc3c(N)nc(C(=O)NCCNC(=O)NC4CCN(c5ccccn5)CC4)nc32)C(O)C1O` (stereo not drawn), the logD was 0.3 (shake flask; aqueous buffer; pH 7.4).
`O=C1CCCCC(=O)Nc2ccc3oc(cc3c2)CNCc2cccc(c2)CNCc2cc3cc(ccc3o2)N1` gave a logD of 3.3 (shake flask; aqueous buffer; pH 7.4).
The logD of `CCn1cc(C(=O)NCCNCCO)c(=O)c2cc(OCc3ccc(C(C)(C)C)cc3)c(Cl)cc21` is reported as less than 3 (shake flask; PBS; 2 h, pH 7.4).
`CCNC(=O)C1OC(n2cnc3c(NCC(c4ccccc4)c4ccccc4)nc(NCCc4ccc(CCN)cc4)nc32)C(O)C1O` (stereo not drawn) has a logD of 1.9 (shake flask; aqueous buffer; pH 7.4).
For `O=C(O)CN1CCN(CC(=O)O)CCN(C(CCC(=O)NCc2ccc(NC(=S)NCCOCCOCCOCCNC(=O)CCCc3ccc(I)cc3)cc2)C(=O)O)CC1` (stereo not drawn), the logD was 0.22 (shake flask; PBS; pH 7.4).
With `O=[11C](N1CCC(CNS(=O)(=O)c2ccc(Cl)cc2)CC1)n1cncn1` the logD was 1.85 (shake flask; PBS; pH 7.4).
With `Cc1ccccc1-c1cc(N2CCOCC2)ccc1N(C)C(=O)C(C)(C)c1cc(C(F)(F)F)cc(C(F)(F)F)c1` the logD was 3.49 (shake flask; aqueous buffer; pH 7).
`CCNC(=O)C1OC(n2cnc3c(NCC(c4ccccc4)c4ccccc4)nc(NCCNC(=O)Nc4cc[n+](C)cc4)nc32)C(O)C1O` (stereo not drawn) gave a logD of 0 (shake flask; aqueous buffer; pH 7.4).
The logD of `Cc1ccc(S(=O)(=O)OCCOC(=O)c2cc(C#N)c(N3CCN(C(=O)Cc4ccccc4)CC3)nc2C)cc1` is reported as 1.11 (shake flask; PBS; pH 7.4).
For `Cc1ccc(N2C(=O)c3ccccc3NC23C(=O)N(C)c2ccc(Br)cc23)cc1` (stereo not drawn), the logD was 3.4 (shake flask; aqueous buffer; pH 7.4).
`C[n+]1cc(C(=O)NCCc2c[nH]c3ccc(NC(=O)c4cc5ccccc5[n+](C)c4)cc23)cc2ccccc21` has a logD of -0.2 (shake flask; aqueous buffer; pH 7.4).
`CCNC(=O)C1OC(n2cnc3c(N)nc(NCCNC(=O)Nc4ccncc4)nc32)C(O)C1O` (stereo not drawn) has a logD of less than -0.1 (shake flask; aqueous buffer; pH 7.4).
For `NC(=O)C(c1ccccc1)(c1ccc(F)cc1)c1ccc(OCC[18F])cc1` (stereo not drawn), the logD was 1.84 (shake flask; PBS; pH 7.4).
For `Cc1ccc(S(=O)(=O)OCCOC(=O)c2cc(C#N)c(N3CCC(C(=O)NS(=O)(=O)c4ccc(Cl)s4)CC3)nc2C)cc1`, the logD was 0.99 (shake flask; PBS; pH 7.4).
The logD of `COc1cc(-c2cncc(-c3ccc(N4CCNCC4)cc3)c2C)cc(OC)c1OC` is reported as 2.76 (shake flask; aqueous buffer; pH 7.4).
For `O=C(Nc1ccc2c(c1)CN(c1ccc(Br)cc1)C2=O)N1CCN(c2ccc(F)cc2)CC1`, the logD was less than 5 (shake flask; aqueous buffer; pH 7.4).

A few entries again:
`CCC(=O)N1CCN(c2ccc(N(C)C(=O)C(C)(C)c3cc(C(F)(F)F)cc(C(F)(F)F)c3)c(-c3ccccc3C)c2)CC1` has a logD of 4.99 (shake flask; aqueous buffer; pH 7).
For `Cc1ccc(S(=O)(=O)OCCOC(=O)c2cc(C#N)c(N3CCC(C(=O)NS(=O)(=O)c4ccc(Cl)s4)CC3)nc2C)cc1`, the logD was 0.99 (shake flask; PBS; pH 7.4).
The logD of `CCn1cc(C(=O)NCCNCCO)c(=O)c2cc(OCc3ccc(C(C)(C)C)cc3)c(Cl)cc21` is reported as less than 3 (shake flask; PBS; 2 h, pH 7.4).
For `O=C(O)CN1CCN(CC(=O)O)CCN(C(CCC(=O)NCc2ccc(NC(=S)NCCOCCOCCOCCNC(=O)CCCc3ccc(I)cc3)cc2)C(=O)O)CC1` (stereo not drawn), the logD was 0.22 (shake flask; PBS; pH 7.4).
For `Cc1ccc(N2C(=O)c3ccccc3NC23C(=O)N(C)c2ccc(Br)cc23)cc1` (stereo not drawn), the logD was 3.4 (shake flask; aqueous buffer; pH 7.4).
